Assay results collected from several papers.
Each line is one published result; not all experiments were run side by side. ± gives the spread as reported.

SMILES | test | test system | conditions | scale | endpoint | value
N#Cc1c(Nc2ccccc2C(F)(F)F)s[nH]c1=O |  | mouse, sciatic nerve axotomy, plasma | intraperitoneal, 15 mg/kg, two doses, 15 h | baseline: vehicle | plasma NfL decrease | -30%
O=c1c(-c2cccnc2)c[nH]n1-c1ccc(CO)cn1 |  | mouse, plasma | oral, 100 mg/kg, 4 h |  | plasma EPO | ~2000 pg/mL
Cc1cccc(O[C@H]2CCC[C@@H](C(C)CNCc3ccncc3)C2)c1 (relative stereo) |  | APP/PS1 mouse | dose not given, chronic treatment |  | plasma IL-1β level | decreased
Cc1cc(N)c2cc(NC(=O)C(=O)Nc3ccc4nc(C)cc(N)c4c3)ccc2n1 | heparin neutralization | mouse | intravenous, 6 mg/kg, 5 min, together with: UFH 1200 IU/kg s.c. |  | plasma UFH concentration | 0.08 ± 0.001 IU/mL
CC(C)(CCCC/C=C/CCCCCC(C)(C)C(=O)O)C(=O)O |  | ApoE-/- mouse, Western diet | dose not given, 24 weeks, multiple doses |  | plasma hsCRP reduction | > 50%
CSCC[C@H](NC(=O)[C@H](CO)NC(=O)[C@@H](N)CO)C(=O)N[C@@H](CCCCN)C(=O)N[C@@H](CC(C)C)C(=O)N[C@@H](CO)C(=O)N[C@@H](Cc1ccccc1)C(=O)N[C@@H](CCCNC(=N)N)C(=O)N[C@@H](C)C(=O)N[C@@H](CCCNC(=N)N)C(=O)N[C@@H](C)C(=O)N[C@@H](Cc1ccc(O)cc1)C(=O)NCC(=O)N[C@@H](Cc1ccccc1)C(=O)N[C@@H](CCCNC(=N)N)C(=O)NCC(=O)N1CCC[C@H]1C(=O)NCC(=O)N1CCC[C@H]1C(=O)N[C@@H](CCC(N)=O)C(=O)N[C@@H](CC(C)C)C(=O)O | refers to: noradrenaline and adrenaline | fed and fasted knockout mouse (endogenous peptide), plasma | dose not given, chronic treatment |  | plasma catecholamine level | decreased
O=C1NC(=O)C(C2CCOc3cc(Oc4ccc(C(F)(F)F)cc4Cl)ccc32)S1 (stereo not drawn) | refers to: total GLP-1 | mouse, overnight fasted, plasma | oral, 30 mg/kg, 30 min |  | plasma GLP-1 level | 12 pmol/L
C[C@H](CC(=O)C[C@@H](C)[C@H]1C[C@H](O)[C@@]2(C)C3=C(C(=O)C[C@]12C)[C@@]1(C)CCC(=O)C(C)(C)[C@@H]1C[C@@H]3O)C(=O)O |  | mouse, STZ-induced type 1 diabetes, plasma | dose not given |  | plasma insulin | 51.6 ± 5.32 mU/mL
CCCc1nc2cc(C(=O)N3CCC4(CC3)CC(=O)c3cc5c(cc3O4)OC(C)(C)CC5)cc(C)c2[nH]1 | refers to: LDL-c, HDL-c | C57BL/6J male mouse, HFD-induced obesity, plasma | dose not given |  | plasma cholesterol | decreased

Repeated from above:
SMILES | test | test system | conditions | scale | endpoint | value
C[C@H](CC(=O)C[C@@H](C)[C@H]1C[C@H](O)[C@@]2(C)C3=C(C(=O)C[C@]12C)[C@@]1(C)CCC(=O)C(C)(C)[C@@H]1C[C@@H]3O)C(=O)O |  | mouse, STZ-induced type 1 diabetes, plasma | dose not given |  | plasma insulin | 51.6 ± 5.32 mU/mL
